Measured values pooled from the literature.
Every numbered part comes from another study and shows a few of its results, in no order. Positions count from the first letter of the parent shown.

Set 1 — technique: RNA Bind-n-Seq; molecule type: RNA; medium: in vitro; tested at: not given; relative to: input RNA pool; direction: higher = stronger binding; measurement: bound/input enrichment
Target: RING finger protein unkempt homolog, zinc fingers 1-6, GST-SBP tag (UNK, Homo sapiens, UniProt Q9C0B0, residues 30-357)
Setting: RNA with constant flanks, human and mouse sites, ends assumed
Constant ends, left off below: GGGAGUUCUACAGUCCGACGAUC … CAACAGAGGAUUGAGCAUCA
Target sequence (chain): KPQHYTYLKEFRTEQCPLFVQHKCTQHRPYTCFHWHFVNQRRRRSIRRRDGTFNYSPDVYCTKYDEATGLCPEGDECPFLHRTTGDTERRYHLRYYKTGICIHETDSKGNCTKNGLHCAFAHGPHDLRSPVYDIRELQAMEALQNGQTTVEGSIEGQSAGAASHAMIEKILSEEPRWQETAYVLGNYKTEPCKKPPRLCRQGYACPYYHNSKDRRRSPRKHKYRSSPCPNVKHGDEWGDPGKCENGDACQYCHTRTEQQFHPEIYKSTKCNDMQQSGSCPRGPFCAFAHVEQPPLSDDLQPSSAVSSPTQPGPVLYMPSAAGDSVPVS
Sequence = GGCAUCAGAUGGUCUCUGGGAUGCUUUCAGCAAUGAAGAAGCAGUUCGAUUCAUCAAGGAGCGCUUGGAUGAACCUCACUUUGGGGCCAAGAGCAUAGUUUUACAGUCAUUUUACAGAGG; result = 2.7 ratio
Sequence = GAAGGUUCCAAGACCUGGGAUCGAUUCCAGAUGAGGAUCCACAAGCGACUCAUUGAUUUACAUAGUCCUUCUGAGAUUGUUAAGCAGAUUACUUCCAUCAGUAUUGAGCCGGGAGUUGAG; result = 0.252 ratio
Sequence = AACCCCAAUGCCUGCAGCUACGGUGUGACUGUGGGUGUGUUGGCCUUCCUCACCUGCCUGCUCUACCUGGCGCUCGAUGUGUACUUCCCGCAGAUCAGCAGUGUCAAGGACCGCAAGAAG; result = 0.118 ratio
Sequence = CAUCGAAUUGGAAGAACUGCUCGCAGUACCAAAACAGGCACAGCAUACACUUUCUUUACACCUAAUAACAUAAAGCAAGUGAGCGACCUUAUCUCUGUGCUUCGGGAAGCUAAUCAAGCA; result = 0.0703 ratio
Sequence = AACACCAACACAGCAAUCGAGCUGAAACUAGUUCGUUUUCCUGAAGAUCUUGAGAAUGACAUUAGAACUUUCUUUCCUGAAUAUACCCAUCAGCUCUUUGGGGAUGAUGAAACUGCUUUC; result = 0.129 ratio
Sequence = AUAAGUAAUUCUCCCCACUUGAUUUUUCUUCUAUAAAAUCCCAUAGAACAAUGUUUAUGCUAUAGCCAUUUAAUAUAUGUACAAAUUGUAAAGAAUAUGUAUAAAUGUUUUACACGAAUG; result = 3.67 ratio
Sequence = GGCAUCGCGGGCUGUGGAACUCUAUUAGUAUUGGAUCAAAAUGAAUCUGGACUUCAGAUUUUUAGAAGCUUUGACUGGAAUGACGGCUUGUUUGACGUUACCUGGAGUGAAAACAAUGAG; result = 10.9 ratio
Sequence = GCUUCCCCGUCCACCUCUUCAGCUCACACCCCUUCUCAGAUAGCCUCUCCUCUUCAGGAAGACACUCUCUCUGAUGUUGUUCCUCCCAGAGAGAUGUCCUUAUAUGCCUCACUUGCGUCU; result = 0.338 ratio
Sequence = AUAAAAUAAAAAUAAAAUAAAACAGAAAUAUUACUCUUCCAUAUUCCUUCUGGCUAUAUUUAGUAAUUAAUUUAUUUUAUGGUAAAGUUCUAAUGACAUGUAAAUUGUUUCAGCAAAGCU; result = 1.37 ratio
Sequence = CGCUCCUUUGGAAAUAAUAAAUAUCCACAAAAUAGUGAUGAUGAAGAAAAUGAACCACAGAUUGAAAAAGAGGAAAUGGAGCUUAGUUUGGUGAUGUCCCAGAGAUGGGACAGCAAUAUU; result = 0.842 ratio
Sequence = UGAUGAAGAGCUGAAGAAAAAAGGCCUCAUAUCCAGUGAUGGAUUCUGCAGAUAUCUGAUGUCAGAUGAAAAUGCCCCUGUCUUCUUAGAUCGCUUAGAACUUUACCAGGAGAUGGACCA; result = 0.196 ratio

Set 2 — target: CCNB3, cyclin fold, Cln2 fusion (human); technique: yeast growth competition, sequencing; medium: yeast; setting: weak parent motif; relative to: not given; direction: higher = stronger binding; measurement: normalised enrichment score
Starting sequence: ORC1 docking peptide (human); PRARKRLELGNLG; partner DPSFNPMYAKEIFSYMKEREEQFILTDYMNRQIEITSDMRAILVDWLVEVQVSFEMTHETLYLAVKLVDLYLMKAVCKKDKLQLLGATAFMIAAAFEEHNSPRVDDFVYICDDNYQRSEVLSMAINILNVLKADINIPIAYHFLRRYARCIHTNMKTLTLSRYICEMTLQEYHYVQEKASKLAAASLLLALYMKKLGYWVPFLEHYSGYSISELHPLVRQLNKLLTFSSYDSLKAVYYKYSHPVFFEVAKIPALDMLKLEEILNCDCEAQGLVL
Substitution = PRARKRLILGNLG [E8I]; result = -0.118
Substitution = PRARKRLELGDLG [N11D]; result = 0.292
Substitution = PRARKRLELGNLE [G13E]; result = 0.469
Substitution = PIARKRLELGNLG [R2I]; result = 0.599
Substitution = PSARKRLELGNLG [R2S]; result = 0.102
Substitution = PRATKRLELGNLG [R4T]; result = 0.37
Substitution = PRARKRLELQNLG [G10Q]; result = -0.379
Substitution = PRARKRLELGNYG [L12Y]; result = -0.134
Substitution = PRARRRLELGNLG [K5R]; result = 0.252
Substitution = PRARKRLELGNEG [L12E]; result = 0.15
Substitution = PRARKRLELGNVG [L12V]; result = 0.0658
Substitution = PRRRKRLELGNLG [A3R]; result = -0.0552
Substitution = PRARKRLELRNLG [G10R]; result = -0.244
Substitution = PRARKRLELENLG [G10E]; result = 0.43
Substitution = PRAWKRLELGNLG [R4W]; result = 0.0981
Substitution = PRARWRLELGNLG [K5W]; result = 0.124
Substitution = PRARKRLELGNAG [L12A]; result = 0.527
Substitution = PRAPKRLELGNLG [R4P]; result = 0.139
Substitution = PRASKRLELGNLG [R4S]; result = 0.0213
Substitution = PRARKRGELGNLG [L7G]; result = -0.0664
Substitution = PRARARAELGNLG [K5A L7A]; result = 0.0544
Substitution = PRARKRLFLGNLG [E8F]; result = 0.331
Substitution = PWARKRLELGNLG [R2W]; result = 1.01
Substitution = PRARSRLELGNLG [K5S]; result = 0.311
Substitution = PRARKRLESGNLG [L9S]; result = 0.416

Set 3 — technique: DHFR PCA, deep sequencing; medium: yeast; together with: (+)-ABA 0.032 µM; relative to: wild-type fitted maximum; direction: higher = stronger binding; measurement: relative binding score
Target: ABI1, truncated, D143A, DHFR fusion (Arabidopsis thaliana)
Setting: methotrexate growth selection, single substitutions
Starting sequence: PYL1, truncated, DHFR fusion (Arabidopsis thaliana); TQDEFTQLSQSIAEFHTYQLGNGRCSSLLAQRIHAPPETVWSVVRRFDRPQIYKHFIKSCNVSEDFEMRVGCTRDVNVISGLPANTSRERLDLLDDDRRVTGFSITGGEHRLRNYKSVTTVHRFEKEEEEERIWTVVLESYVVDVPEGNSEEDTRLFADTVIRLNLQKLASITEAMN; partner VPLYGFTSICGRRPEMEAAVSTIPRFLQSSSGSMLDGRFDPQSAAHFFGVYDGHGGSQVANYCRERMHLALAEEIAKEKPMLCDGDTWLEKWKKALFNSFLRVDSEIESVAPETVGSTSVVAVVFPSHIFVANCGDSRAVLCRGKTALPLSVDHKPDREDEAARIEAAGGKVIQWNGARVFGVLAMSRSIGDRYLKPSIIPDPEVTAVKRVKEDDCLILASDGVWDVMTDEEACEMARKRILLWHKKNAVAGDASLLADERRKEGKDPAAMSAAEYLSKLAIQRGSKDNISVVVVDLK
Substitution = R113C; result = 9.21%
Substitution = E151T; result = 26.6%
Substitution = V76F; result = -9.5%
Substitution = P36T; result = 11.5%
Substitution = V142G; result = -2.81%
Substitution = Q7I; result = 12%
Substitution = I105E; result = 0.792%
Substitution = T39A; result = 23.7%
Substitution = K126S; result = 70.9%
Substitution = E38V; result = 2.18%
Substitution = R88H; result = 50.8%
Substitution = Q31N; result = -8.7%
Substitution = S11Q; result = 25.3%
Substitution = P83G; result = 55.2%
Substitution = D96W; result = 2.98%
Substitution = V76M; result = 8%

Set 4 — technique: RNA Bind-n-Seq; molecule type: RNA; medium: in vitro; tested at: 1 µM; setting: whole 134-nt RNA, ends assumed; together with: 150 mM KCl; relative to: input library; direction: higher = stronger binding; measurement: log2 enrichment
Target: Ras GTPase-activating protein-binding protein 1, C-terminal RGG region (G3BP1, Homo sapiens, UniProt Q13283)
UniProt Q13283, sequence (whole entry, looked up): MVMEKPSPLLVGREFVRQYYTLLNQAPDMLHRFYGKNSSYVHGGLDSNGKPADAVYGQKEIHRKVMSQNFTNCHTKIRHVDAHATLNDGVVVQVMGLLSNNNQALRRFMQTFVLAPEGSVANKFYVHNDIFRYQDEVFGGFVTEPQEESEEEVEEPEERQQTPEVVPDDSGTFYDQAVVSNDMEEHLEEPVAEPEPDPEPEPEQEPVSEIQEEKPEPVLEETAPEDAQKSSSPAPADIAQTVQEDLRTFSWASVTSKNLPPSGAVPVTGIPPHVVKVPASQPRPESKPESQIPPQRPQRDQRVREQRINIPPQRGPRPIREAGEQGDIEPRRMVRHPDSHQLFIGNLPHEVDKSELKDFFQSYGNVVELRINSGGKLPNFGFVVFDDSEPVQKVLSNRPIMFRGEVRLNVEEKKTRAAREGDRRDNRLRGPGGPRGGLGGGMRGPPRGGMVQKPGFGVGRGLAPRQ
Constant ends, left off below: GGGAGUUCUACAGUCCGACGAUC … UGGAAUUCUCGGGUGUCAAGG
Sequence = AGUCCUGUGCUACACAUCGUAUGUACCGAAUCGGGAAAAGGGGAAAAGGAAAAGGGGAAAGUAUUAUGUUACGCCGUUCGGAUCUGCACU; result = -0.377
Sequence = CUCAAGUCCUGUGCUACACAUCGUAUGUACCGAAUCGGUUUUUGGAAAGGUGGAAAGUAUUAUGUUACGCCGUUCGGAUCUGCACUUCCA; result = -1.02
Sequence = UCAAGUCCUGUGCUACACAUCGUAUGUACCGAAUCGGUUUGGAAAAAGGAAAGGAAAGUAUUAUGUUACGCCGUUCGGAUCUGCACUUCC; result = -1.39
Sequence = CACAGACAACACGCACCCACACAGACACAGAGGGAAGGGGUUGGGAUGGCGACAGGGUGCACAGCAGGGCGGGGUAGGACCCCAGCCCCU; result = -0.506
Sequence = UCCUGUGCUACACAUCGUAUGUACCGAAUCGGGUUUUUUGGGUUUUUUGGGUUUUUUGGGAAAGUAUUAUGUUACGCCGUUCGGAUCUGC; result = -0.363
Sequence = UCCUCAAGUCCUGUGCUACACAUCGUAUGUACCGAAUCGGAGGAGGGAGGGAAAGUAUUAUGUUACGCCGUUCGGAUCUGCACUUCCAGC; result = -0.746
Sequence = GUCCUGUGCUACACAUCGUAUGUACCGAAUCGGGGUUUGGGGAAAAAAAGGGGUGGGGAAAGUAUUAUGUUACGCCGUUCGGAUCUGCAC; result = 1.68
Sequence = GGAGUGCCGUGAGCAGGCCGCGGGAACGUCGCCGUCACCUUGUCUCGGGGCCUCGGCGCUGCUUCCCGCCAAAACACGUUUACCGCGCGC; result = -2.36
Sequence = UAACUUUAGAGGAGGAUCUGAUGGAUAUGGCAGUGGACGUGGAUUUGGGGAUGGCUAUAAUGGGUAUGGAGGACGACCUGGAGGUGGCAA; result = -1.43
Sequence = CUCAAGUCCUGUGCUACACAUCGUAUGUACCGAAUCGGGGUUGGGUUGGUUGGAAAGUAUUAUGUUACGCCGUUCGGAUCUGCACUUCCA; result = -0.457
Sequence = UAACUUUAGAGGAGGAUCUGAUAGAUAUGGCAGUGGACGUGGAUUUGGGGAUGGCUAUAAUGGGUAUGGAGGAGGACCUGGAGGUGGCAA; result = -1.48
Sequence = UGUCGGGGCCAAAGUGGUAACGAACGCCCGCAGCCCGGGGGCUCGAUGCUAUGGAUUCGUCACCAUGUCGACAUCUGACGAGGCGACCAA; result = -2.58
Sequence = AGUCCUGUGCUACACAUCGUAUGUACCGAAUCGGAAAAAGGAAAAAAAGGAAAAAGGAAAGUAUUAUGUUACGCCGUUCGGAUCUGCACU; result = -2.07
Sequence = UAAUUUUAGAGGAGGAUCUGAUGGAUAUGGCAGUGGACGUGGAUUUGGGGAUGGCUAUAAUGGGUAUGGAGGAGGACCUGGAGGUGGCAA; result = -0.848

Other studies, line by line
Molecule = PhoQ, residues 284 288 289 292 302 303 SASVAL; target = PhoP, residues 12 14 15 18 19 VQGLL (Escherichia coli, UniProt P23836); assay = Sort-seq, measured: YFP reporter; system = E. coli; conditions = PhoQ-PhoP variant library, together with: 10 µM Mg2+; scale = relative to: high Mg2+ state, higher = stronger signaling; measurement = fold induction; result = 14.2

A few entries again (set 4):
Sequence = UAACUUUAGAGGAGGAUCUGAUAGAUAUGGCAGUGGACGUGGAUUUGGGGAUGGCUAUAAUGGGUAUGGAGGAGGACCUGGAGGUGGCAA; result = -1.48
Sequence = UGUCGGGGCCAAAGUGGUAACGAACGCCCGCAGCCCGGGGGCUCGAUGCUAUGGAUUCGUCACCAUGUCGACAUCUGACGAGGCGACCAA; result = -2.58
Sequence = CUCAAGUCCUGUGCUACACAUCGUAUGUACCGAAUCGGUUUUUGGAAAGGUGGAAAGUAUUAUGUUACGCCGUUCGGAUCUGCACUUCCA; result = -1.02
Sequence = AGUCCUGUGCUACACAUCGUAUGUACCGAAUCGGAAAAAGGAAAAAAAGGAAAAAGGAAAGUAUUAUGUUACGCCGUUCGGAUCUGCACU; result = -2.07
